Published values gathered from unrelated publications.
Each line is one published result; not all experiments were run side by side. Several values in a cell are separate wells, animals, samples, runs or records. ± gives the spread as reported.
rep main protease: Replicase polyprotein 1ab, main protease (rep, Severe acute respiratory syndrome coronavirus 2, UniProt P0DTD1)

SMILES	target or system	test	test system	setting	measurement	value
N#CC(=Cc1ccc(O)c(O)c1)C(=O)c1ccc(O)c(O)c1	SARS-CoV-2	viral replication	Vero C1008, USA-WA1/2020	2.5 µM, reconfirmation	inhibition	55.2%
O=C(CSc1nc2c(c(=O)[nH]1)CCCC2)NNC(=O)c1ccc(Cl)cc1	SARS-CoV-2	virucidal activity, plaque reduction		62.5 µM	inhibition	34.4 ± 5.1%
CC1=C(/C=C/C(C)=C/C=C/C(C)=C/C(=O)OCC(=O)C(C)(C)C)C(C)(C)CCC1	SARS-CoV-2	viral replication	Vero E6, USA-WA1/2020	2.5 µM	inhibition	44.1%
CC(C)(C)NC(=O)N[C@H](C(=O)N1C[C@H]2[C@@H]([C@H]1C(=O)NC(CC1CCC1)C(=O)C(N)=O)C2(C)C)C(C)(C)C (stereo partly shown)	rep main protease	reporter gene (Gaussia luciferase), inhibitor		20 µM	inhibition	22.5%
Cn1cnc(Cn2c(=O)[nH]/c(=N\c3cc4cn(C)nc4cc3Cl)n(Cc3cc(F)c(F)cc3F)c2=O)n1	SARS-CoV-2	viral replication	Vero C1008, XBB.1	0.005716 µM	inhibition	0%
O=C(/C=C/c1ccc(O)c(O)c1/C=C/c1ccc(O)c(O)c1)O[C@H](Cc1ccc(O)c(O)c1)C(=O)O	SARS-CoV-2	cytopathic effect	Vero E6	1.562 µM, first run	inhibition	0%
CC(C)(C)[C@H](NC(=O)C(F)(F)F)C(=O)N1C[C@H]2[C@@H]([C@H]1C(=O)N[C@H](C#N)C[C@@H]1CCNC1=O)C2(C)C	SARS-CoV-2	viral replication	Vero E6	0.125 µM	inhibition	85% and 135%
CC[C@H](C)[C@H](NC(=O)[C@H](CC(C)C)NC(=O)[C@H](Cc1c[nH]c2ccccc12)NC(=O)[C@H](CCC(N)=O)NC(=O)[C@@H](NC(=O)[C@H](Cc1ccccc1)NC(=O)[C@H](C)NC(=O)[C@H](CCCCNC(=O)COCCOCCNC(=O)COCCOCCNC(=O)CC[C@H](NC(=O)CCCCCCCCCCCCCCCCCCC(=O)O)C(=O)O)NC(=O)[C@H](CCC(N)=O)NC(=O)[C@H](C)NC(=O)[C@@H](NC(=O)[C@H](CCCCN)NC(=O)[C@H](CC(=O)O)NC(=O)[C@H](CC(C)C)NC(=O)C(C)(C)NC(=O)[C@@H](NC(=O)[C@H](CO)NC(=O)[C@H](Cc1ccc(O)cc1)NC(=O)[C@H](CC(=O)O)NC(=O)[C@H](CO)NC(=O)[C@@H](NC(=O)[C@H](Cc1ccccc1)NC(=O)[C@@H](NC(=O)CNC(=O)[C@H](CCC(=O)O)NC(=O)C(C)(C)NC(=O)[C@@H](N)Cc1ccc(O)cc1)[C@@H](C)O)[C@@H](C)O)[C@@H](C)CC)[C@@H](C)CC)C(C)C)C(=O)N[C@@H](C)C(=O)NCC(=O)NCC(=O)N1CCC[C@H]1C(=O)N[C@@H](CO)C(=O)N[C@@H](CO)C(=O)NCC(=O)N[C@@H](C)C(=O)N1CCC[C@H]1C(=O)N1CCC[C@H]1C(=O)N1CCC[C@H]1C(=O)N[C@@H](CO)C(N)=O			healthy subjects, single ascending dose	2.5 mg, day 29	serum amylase	84.2 ± 23.5 U/L
O=C(CSc1nc2ccccc2c(=O)[nH]1)NNC(=O)c1ccccc1Br	SARS-CoV-2	viral replication, plaque reduction		31.25 µM	inhibition	38.2 ± 4.29%
CNC(=O)[C@@H](NC(=O)[C@H](CC(C)C)[C@H](O)C(=O)NO)C(C)(C)C			mouse	60 µg/mouse, observed up to 0 h, together with: Daboia russelii venom, Southeast, preincubated	time of death	> 24 h
O=C(CSc1nc2c(c(=O)[nH]1)CCCC2)NNC(=O)c1ccc([N+](=O)[O-])cc1	SARS-CoV-2	viral replication, plaque reduction		31.25 µM	inhibition	30 ± 3.3%
Nc1ncnc2c([C@@H]3N[C@H](CO)[C@@H](O)[C@H]3O)c[nH]c12	Lassa mammarenavirus	viral replication	HeLa, Josiah	3.1 µM	inhibition	5.6%
CC(C)=CCc1c(O)ccc(C(=O)/C=C/c2ccc(O)cc2)c1O	SARS-CoV-2	cytopathic effect	Vero E6	50 µM, first run	inhibition	0%
COc1ccc(S(=O)(=O)N(Cc2cccnc2)[C@@H](C(=O)NO)C(C)C)cc1	rep main protease	reporter gene (Gaussia luciferase), inhibitor		20 µM	inhibition	-1.28%
CCNC/C=C\CNCCCCNCCCCNC/C=C\CNCC	SARS-CoV-2	viral replication	Vero C1008, USA-WA1/2020	2.5 µM, reconfirmation	inhibition	81.8%
O=C(O[C@@H]1Cc2c(O)cc(O)cc2O[C@@H]1c1cc(O)c(O)c(O)c1)c1cc(O)c(O)c(O)c1	SARS-CoV-2	cytopathic effect	Vero E6	6.25 µM, first run	inhibition	0%
CCCCc1nc(C)n(Cc2sccc2C(=O)OC)c(=O)c1Cc1ccc(-c2ccccc2-c2nnn[nH]2)cc1	SARS-CoV-2	viral replication	Vero E6, USA-WA1/2020	2.5 µM	inhibition	66.5%
COc1ccc(C[C@@H]2c3cc(Oc4cc(C[C@@H]5c6cc(O)c(OC)cc6CCN5C)ccc4O)c(OC)cc3CCN2C)cc1	SARS-CoV-2	cytopathic effect	Vero C1008 (E6)	100 µM	inhibition	90%
Cn1cnc(Cn2c(=O)[nH]/c(=N\c3cc4cn(C)nc4cc3Cl)n(Cc3cc(F)c(F)cc3F)c2=O)n1			human, severe renal impairment	oral, 375 mg	any TEAE, mild severity	0%

For quick reference, copied from above:
SMILES	target or system	test	test system	setting	measurement	value
Cn1cnc(Cn2c(=O)[nH]/c(=N\c3cc4cn(C)nc4cc3Cl)n(Cc3cc(F)c(F)cc3F)c2=O)n1	SARS-CoV-2	viral replication	Vero C1008, XBB.1	0.005716 µM	inhibition	0%
O=C(/C=C/c1ccc(O)c(O)c1/C=C/c1ccc(O)c(O)c1)O[C@H](Cc1ccc(O)c(O)c1)C(=O)O	SARS-CoV-2	cytopathic effect	Vero E6	1.562 µM, first run	inhibition	0%
